Measurements collected from several papers.
Every numbered part comes from another study and shows a few of its results, in no order.

Study 1
Target: Interferon regulatory factor 5, full length, phosphomimetic (IRF5, Homo sapiens, UniProt Q13568-2, residues 1-514, K96S/S451D/S453D/S456D/S462D)
Method: protein-binding microarray
Form: double-stranded DNA, one strand shown
Matrix: in vitro
Concentration: 250 nM
Notes: 60-bp whole probe
Together with: salmon DNA 0.4 mg/ml
Baseline: random background probes
Reading: higher = stronger binding
All sequences stand within: GCCTAGCAC … GTCTTGATTCGCTTGACGCTGCTG
| Oligonucleotide | log fluorescence [z-score] |
| --- | --- |
| TTAGGGATCCTTTTCCTTTAGTGCTAG | 0.0183 |
| TAAGGTTTCGACTTTCGGTTAGTGCTA | 10.3 |
| TCATATCTCTGTTTTTGACTGTGCTAG | 1.01 |
| TTAGATTTCGGGACTGGAATAGTGCTA | 3.07 |
| TCATTTTCCTCTGTCATACTGTGCTAG | 1.43 |
| TTCTATATTTGCTTCAGGTTGTGCTAG | 0.742 |
| TTAGGACTGCTTATCCGTTAGTGCTAG | -0.0253 |
| TTAGATCACAGACTGGATTAGTGCTAG | -0.369 |
| TCAGGTGTCTTTTGTGGAACTGTGCTA | 0.112 |
| CTAGATTTCAGTTTCGATTAGTGCTAG | 10.7 |
| GACGGCTTCCTTTCCCTGACGTGCTAG | 0.167 |
| TCCTATATCTGAACCGCAGAGTGCTAG | 0.414 |
| TTAGGTTTCTTTTTCCTTTAGTGCTAG | 2.1 |
| TCACATTTTTTTTGCAAACTGTGCTAG | 0.972 |
| GACGATATCAAACTGGAGACGTGCTAG | 0.534 |
| GACGGACTGCCTCTCCTGACGTGCTAG | -0.674 |
| GACGGTTTCGACTTTCGAGACGTGCTA | 7.87 |
| TTAGGACTAGGTTTCGGTTAGTGCTAG | 8.73 |
| GACGGTTTCGGTTCCGGGAGGTGCTAG | 9.78 |
| GACGGTCTCCTTCTCCCGACGTGCTAG | -0.174 |
| GACGGTTTCGGACTGGTGACGTGCTAG | 3.95 |
| GAAGATCTCAGACTGGAGACGTGCTAG | -0.337 |
| GACGGTTTCCCTCTCCTGACGTGCTAG | 0.708 |
| GACGGTCTCGGCTTCGGGACGTGCTAG | -0.179 |
| TTAGATTTCGGTTATCGATTAGTGCTA | 9.52 |

Study 2
Target: Centromere-binding protein 1, full length, His-tagged (CBF1, Saccharomyces cerevisiae, UniProt P17106, residues 1-351)
Sequence of UniProt P17106 (whole entry, looked up): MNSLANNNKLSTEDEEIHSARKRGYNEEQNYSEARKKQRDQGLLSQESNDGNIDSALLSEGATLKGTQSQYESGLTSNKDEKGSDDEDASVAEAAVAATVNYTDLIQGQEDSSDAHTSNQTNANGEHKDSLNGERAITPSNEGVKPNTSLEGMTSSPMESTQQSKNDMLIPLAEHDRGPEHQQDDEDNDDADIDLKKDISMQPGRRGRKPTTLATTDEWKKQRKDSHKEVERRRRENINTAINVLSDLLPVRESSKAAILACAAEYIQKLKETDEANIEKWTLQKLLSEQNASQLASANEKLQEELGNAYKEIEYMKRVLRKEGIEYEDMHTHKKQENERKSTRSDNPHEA
Method: competition protein-binding microarray
Form: double-stranded DNA, one strand shown
Matrix: in vitro
Concentration: 2 µM
Notes: whole 60-bp probe, lowest competitor level
Together with: Pho4 competitor, 0.05 µM
Reading: higher = stronger binding
All sequences stand within: … GTCTTGATTCGCTTGACGCTGCTG
| Oligonucleotide | fluorescence intensity [a.u.] |
| --- | --- |
| TGCGCAACAACTTGGCTAGTGGGTGTATGTCTAGAA | 48.9 |
| CATACCCAACCTTGGCACGTGGGTGAAGATATTTGT | 1810 |
| ACTCCATATCCTTATCATGTGCCGTAGTACATTGTG | 519 |
| CCGGGGGCATATTGACGCGTGGAAGAATAGAAGTCC | 78.7 |
| ACTTTTTGTGGGGTAAACGTGGATTAAACGAATCTC | 107 |
| ATCATTTTCAATGAAGCTGTGACGGTGGCATTCGCA | 80.1 |
| CTTTCCCGATCTTTTCACGTGTGCTTAGCACATTTG | 797 |
| CGCTGAGTACTTCCTCACCTGATCCAATCGATTGAC | 357 |
| GTCTTGTCTCATTGGCATGTGGGTGTCCCCACTTCA | 107 |
| GGGATGAAAGTTCTGCGTGTGTTGGTTACTTAGGTT | 104 |
| ATGCCCTATTAAAAATTCGTGGGACTATGATAATTT | 77.3 |
| ACAATGTTTCAACTTCGCGTGCTGTTAAAAAAGTAC | 97.7 |
| TGCGCAACAACTTGTCACGGGACTTTATGTCTAGAA | 1460 |
| ACAAGTTTTACTCGGCACGTCAATTCGATGAAGCTA | 88.8 |
| CATACCCAACCTTGCACGGTGGGTGAAGATATTTGT | 61.7 |
| GTCAACGCAGATTTGCAGATGCAAGCAAGAATACAT | 70 |
| CTAACGAAGGTTTGTCACACAACTTACAAGCCAAGT | 93 |
| AATTTCCGGCTTCTTCACGTTATGCACCATCACCTT | 84.9 |
| TGCTGGCATTCTTATCTCGTGCTTTTATTAGTGGGC | 319 |
| TATTCAGAAACGAGTCACGTTGTGGAAAATCTCCCT | 1160 |
| CTTTCCCGATCTTGTGCTGTGGGTGTAGCACATTTG | 64.6 |
| TTCTCGGACTTAAAGCATGTGCTCACCATACTACCA | 187 |
| CTTCGCGCCACATCGCACGGGTGCAGGAACAACTGT | 64.5 |
| CTTTCCCGATCTTGGCACGTGTTTTTAGCACATTTG | 2310 |
| GTAAAAAATAGCATTTGCGTGCTTTAGTGAAATTTT | 82 |

Study 3
Target: Histone acetyltransferase KAT6A, winged helix 1, GST fusion (KAT6A, Homo sapiens, UniProt Q92794, residues 1-85)
Method: protein binding microarray
Form: double-stranded DNA, one strand shown
Matrix: in vitro
Concentration: not given
Notes: 8-mer, flanks averaged, mean of 2 arrays, mostly near background
Baseline: not given
Reading: higher = stronger binding
Residues (chain): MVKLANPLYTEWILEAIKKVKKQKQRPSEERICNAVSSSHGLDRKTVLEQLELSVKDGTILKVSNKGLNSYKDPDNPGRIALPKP
| Oligonucleotide | E-score |
| --- | --- |
| CCCTTCTA | -0.0826 |
| GATCTGAC | -0.0126 |
| CGCACGCG | 0.421 |
| ACGGTCGG | 0.253 |
| GAAGACGC | 0.0975 |
| CGCTCCCA | 0.0392 |
| CGTCTAGC | 0.00312 |
| CAGAAACA | -0.0746 |
| AAACCCTG | -0.183 |
| AAGCTATC | -0.161 |
| CACCGCCG | 0.437 |
| ATTTTTCA | -0.12 |
| CGGTGCAA | 0.123 |
| GTAATATA | 0.0615 |
| CGATAACG | 0.0157 |
| CTAGAAAA | -0.117 |
| CGGTTTAG | 0.0689 |
| CCGACGTC | 0.241 |
| GCACACAC | -0.0624 |
| AATATAAC | -0.166 |
| AACAGCGA | -0.0191 |
| ATGCCCCG | 0.0903 |
| ATTCCAAG | -0.272 |
| CATTGGGA | -0.255 |
| CGCGTTGC | 0.269 |

Study 4
Target: Ras GTPase-activating protein-binding protein 1, full length (G3BP1, Homo sapiens, UniProt Q13283)
Sequence of UniProt Q13283 (whole entry, looked up): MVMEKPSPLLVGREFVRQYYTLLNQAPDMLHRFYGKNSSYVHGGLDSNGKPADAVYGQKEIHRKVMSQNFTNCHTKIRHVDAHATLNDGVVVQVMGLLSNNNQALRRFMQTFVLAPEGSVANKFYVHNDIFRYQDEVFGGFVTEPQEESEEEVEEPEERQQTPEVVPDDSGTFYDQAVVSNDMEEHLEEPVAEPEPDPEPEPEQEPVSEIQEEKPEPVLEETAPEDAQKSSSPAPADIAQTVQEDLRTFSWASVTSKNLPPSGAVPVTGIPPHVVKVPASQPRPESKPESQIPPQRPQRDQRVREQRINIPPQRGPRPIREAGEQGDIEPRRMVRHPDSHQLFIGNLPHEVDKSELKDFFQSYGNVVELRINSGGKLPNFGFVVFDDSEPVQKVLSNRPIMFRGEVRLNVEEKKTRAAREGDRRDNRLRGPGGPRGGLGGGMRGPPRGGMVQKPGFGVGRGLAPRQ
Method: RNA Bind-n-Seq
Form: RNA
Matrix: in vitro
Concentration: 200 nM
Notes: whole 134-nt RNA, ends assumed
Together with: 150 mM KCl
Baseline: input library
Reading: higher = stronger binding
All sequences stand within: GGGAGUUCUACAGUCCGACGAUC … UGGAAUUCUCGGGUGUCAAGG
| Oligonucleotide | log2 enrichment |
| --- | --- |
| CAAGUCCUGUGCUACACAUCGUAUGUACCGAAUCGGGGAGGGGAAAGGGGUGGGGAAAGUAUUAUGUUACGCCGUUCGGAUCUGCACUUC | 1.12 |
| CAAGUCCUGUGCUACACAUCGUAUGUACCGAAUCGGGGCCCGGCCCGGGGCCCGGGAAAGUAUUAUGUUACGCCGUUCGGAUCUGCACUU | -0.902 |
| CCUCAAGUCCUGUGCUACACAUCGUAUGUACCGAAUCGGAAGGGAAGGAAGGAAAGUAUUAUGUUACGCCGUUCGGAUCUGCACUUCCAG | -0.172 |
| UAACUUUAGAGGAGGAUCUGAUGGAUAUGGCAGUGGACGUGGAUUUGGGGAUGGCCAUAAUGGGUAUGGAGGAGGACCUGGAGGUGGCAA | 0.298 |
| GGCAGGAGGAAGAGCGCAGGCGCCGUGAAGAAGAGAUGCGGCGGCAGCAAGAAGAAAUGAUGCGGCGACAGCAGGAAGGAUUCAAGGGAA | 0.909 |
| UCCUUUUUUUUUUUCUUUGAAUGUAUUUAUUUCUUGUAGUCUACUGGUGCUGUUGUGACGGAGAGCCAGACGUACAAAAACCGAGCUGGU | 0.465 |
| UUUUCAAGGGCCGCUUGAAGAUGCCAUUGAAGAUGAGGAAGAAGAAUGUCCAUCAGAGGAAACAGACAUCAUCUCCAAAGGAGACUUUCC | -1.55 |
| GUCCUGUGCUACACAUCGUAUGUACCGAAUCGGGUUUUUUUGGGAAAGGGAAAAAGGGAAAGUAUUAUGUUACGCCGUUCGGAUCUGCAC | -0.622 |
| UGGCCCUGGUGGCAUGCGGGGAGGAAGGGGUGGCCUCAUGGAUCGUGGUGGUCCCGGUGGAAUGUUCAGAGGUGGCCGUGGUGGAGACAG | 0.874 |
| UCCUGUGCUACACAUCGUAUGUACCGAAUCGGCCCCCCGGGCCCCCCGGCCCCCCGGGGAAAGUAUUAUGUUACGCCGUUCGGAUCUGCA | -0.38 |
| ACCAUGCAGGUGGGCAUCUUUGGGAAGUGGGGCAAGGGGGGGAUAGGGAGGGGGGUAACACUUUGGGAACAGGUGGCCCCAGGUCGUUUC | 1.18 |
| GUCCUGUGCUACACAUCGUAUGUACCGAAUCGGGGUUUUUGGGUUUUUGGGUUUUUGGAAAGUAUUAUGUUACGCCGUUCGGAUCUGCAC | -0.59 |
| CCUGUGCUACACAUCGUAUGUACCGAAUCGGGGAAAGGGGAAAAAGGGGUUUUUUUGGGGAAAGUAUUAUGUUACGCCGUUCGGAUCUGC | 0.29 |
| ACCAUGCAGGUGGGCAUCUUUGGGAAGUGGGGCAAGGGGGCGAUAGGGAGGGGGGUAACACUUUGGGAACAGGUGGUCCCAGGUCGUUUC | 1.16 |

For quick reference, copied from above (study 2):
| Oligonucleotide | fluorescence intensity [a.u.] |
| --- | --- |
| TGCTGGCATTCTTATCTCGTGCTTTTATTAGTGGGC | 319 |
| GGGATGAAAGTTCTGCGTGTGTTGGTTACTTAGGTT | 104 |
| CATACCCAACCTTGCACGGTGGGTGAAGATATTTGT | 61.7 |
| TGCGCAACAACTTGGCTAGTGGGTGTATGTCTAGAA | 48.9 |
| TTCTCGGACTTAAAGCATGTGCTCACCATACTACCA | 187 |
